Assay results gathered from unrelated publications.
Each numbered part is a random draw from the data of one study; scales do not carry over between parts.

Study 1 — method: aptamer microarray, sandwich; molecule type: DNA with 2'F-ANA; medium: in vitro; tested at: 200 nM; added: Cy3 exosite-II aptamer, 400 nM; reading: higher = stronger binding; strand: GGTTGGTGTGGTTGG
Target: Prothrombin, mature alpha-thrombin (F2, Homo sapiens, UniProt P00734)
Setting: whole 15-mer aptamer, many near background
For `2'F-ANA at 8 11 13 15`, “mean fluorescence intensity” read 447 a.u.
Under “mean fluorescence intensity”, `2'F-ANA at 1 3 4 9` is recorded as 216 a.u.
`2'F-ANA at 1 2 4 5 7 10 11 14 15`: “mean fluorescence intensity” 47.2 a.u.
`2'F-ANA at 1 2 4 7 10 12 14` — result for “mean fluorescence intensity”: 49.3 a.u.
`2'F-ANA at 1 3 8 11 12 13` — result for “mean fluorescence intensity”: 462 a.u.
Under “mean fluorescence intensity”, `2'F-ANA at 2 3 6 7 8 9 11 13` is recorded as 549 a.u.
`2'F-ANA at 4 5 7 11 12` — result for “mean fluorescence intensity”: 127 a.u.

Study 2 — method: RNA Bind-n-Seq; molecule type: RNA; medium: in vitro; tested at: 365 nM; relative to: no-protein control; reading: higher = stronger binding
Target: RNA binding protein fox-1 homolog 2, RRM domain, GST-SBP tag (RBFOX2, Homo sapiens, UniProt O43251-10, residues 100-194)
Setting: natural RNA segment, single round, ends assumed
Residues (chain): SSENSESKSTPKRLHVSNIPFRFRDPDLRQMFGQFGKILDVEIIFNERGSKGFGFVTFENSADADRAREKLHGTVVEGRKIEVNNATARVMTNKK
Under “RBNS enrichment (R)”, `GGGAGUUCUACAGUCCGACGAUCGAGCAAGUGACCGUUGAGGACAGGUGAUGUGAAUGUUUGUUCUAGAUUUAAUUCAGUUUUCUGAAUGGACACAGGGAGUUGGGAGUAUGUGUGUGUGUGUGUGUGUGUGUUGGAAUUCUCGGGUGCCAA` is recorded as 21.9.
Under “RBNS enrichment (R)”, `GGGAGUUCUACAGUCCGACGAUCUAAAAUAACAGCAAUAAACCUAACCUUUUAACAGGGUCUAACAUGAGAGUUGGAGUCAAAGCCAUUGUUAUCUUUUGGUGACACCCUUAAAUUUUAAGUCUUCCAGUCUUUGGAAUUCUCGGGUGCCAA` is recorded as 0.69.
For `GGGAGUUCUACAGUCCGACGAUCGCUGCUAAAGUUGCAAGUGAUUGAUAAUGGAUUUUUAACAGAGAAGUCUUUGUUUUUGAAAAACAAAAAUCAAAAACAGUAACUAUUUUAUAUGGAAAUGUGUCUUGAUAUGGAAUUCUCGGGUGCCAA`, “RBNS enrichment (R)” read 0.985.
`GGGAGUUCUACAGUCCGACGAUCGGCUCUUUCCUAGGCCGCACAAGCUUCUGCAGCAAUCUCAGAGACUGAAACAGCUGAGAGCCUAUUAGAGACCUGCUGCAAUGGCUGUCAGCCUUGGGAAAGGGGGACUCUGGAAUUCUCGGGUGCCAA`: “RBNS enrichment (R)” 0.918.
Under “RBNS enrichment (R)”, `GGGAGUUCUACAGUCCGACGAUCCCCCAAGGUGAAGUGGAGGGUGCUGUGGUGAGCUGGCCACUCCAGAGCUGCAGUGCCACUGGAGGAGUCAGACUACCAUGACAUCGUAGGGAAGGAGGGGAGAUUUUUUUUGGAAUUCUCGGGUGCCAA` is recorded as 0.52.
`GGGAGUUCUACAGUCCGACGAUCUCCAAGUCCGUCUACUACAGAGUCUAUUAUACUAGUAGAGCUGCUGUUCCAGGGUCGGGAGUCUAGGGUUGAGCACAACAUGACGUUUAAUUUCCUUUGACUUUUGUGGCUGGAAUUCUCGGGUGCCAA`: “RBNS enrichment (R)” 0.285.
`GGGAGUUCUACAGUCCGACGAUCGUUUGUUGUAUGAACCAAGUGGUUUGAAGACUUGCUGCCAAAUUCUGCCUUUUGGGUCAGUAUAGGAUGCAUAAGUGGUAGAAUCUUCACACUUCCCACUGCCAAGAUUUUGGAAUUCUCGGGUGCCAA`: “RBNS enrichment (R)” 1.83.
`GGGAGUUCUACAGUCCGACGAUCCAGGCUCAAAGGAGAUAUGUAUAAGAAAGUGGUUUGUAAAUUAUGUUCCAUUUCAUAAAUAGACACUAUUCACAAACUAAAAUCUAAUAAAAAACCACAGUUGUAAUUUAUGGAAUUCUCGGGUGCCAA` — result for “RBNS enrichment (R)”: 0.471.

Study 3 — method: protein binding microarray; molecule type: double-stranded DNA, one strand shown; medium: in vitro; tested at: not given; relative to: not given; reading: higher = stronger binding
Target: Histone acetyltransferase KAT6A, both winged helices, GST fusion (KAT6A, Homo sapiens, UniProt Q92794, residues 1-181)
Setting: 8-mer, flanks averaged, mean of 2 arrays, mostly near background
Residues (chain): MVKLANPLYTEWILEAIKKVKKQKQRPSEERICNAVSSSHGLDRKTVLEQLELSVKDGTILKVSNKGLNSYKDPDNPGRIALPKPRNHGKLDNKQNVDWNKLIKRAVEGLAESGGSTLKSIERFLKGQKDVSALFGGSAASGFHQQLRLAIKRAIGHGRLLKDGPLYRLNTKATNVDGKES
`ATACGCGC` has an E-score of 0.304.
`ATTGCAAG` gave an E-score of -0.148.
The E-score of `CCATTAAA` is reported as -0.0802.
`CTCCCGAC` gave an E-score of 0.149.
`AGTCTTTG` has an E-score of -0.165.
For `GGAAATCC`, the E-score was 0.0749.
The E-score of `CAAGTTAA` is reported as -0.096.
With `GTATAGTA` the E-score was 0.135.
For `GAAAACCC`, the E-score was 0.0147.
The E-score of `CTTTTGAC` is reported as -0.0523.

Further values, each from its own experiment
With `PhoQ, residues 284 288 289 292 302 303 SLANKL` the fold induction was 16.9 (PhoP, residues 12 14 15 18 19 GHCSL (Escherichia coli, UniProt P23836); Sort-seq, refers to: YFP reporter; E. coli; PhoQ-PhoP variant library, added: 10 µM Mg2+; relative to: high Mg2+ state, higher = stronger signaling).
